Published values from different studies.
Numbers after ± are the reported error.

CC[C@H](C)[C@H](NC(=O)[C@H](C)NC(=O)[C@H](C)NC(=O)[C@H](CCC(N)=O)NC(=O)CNC(=O)[C@H](CC(C)C)NC(=O)[C@H](Cc1c[nH]cn1)NC(=O)[C@H](CCCCN)NC(=O)[C@H](C)NC(=O)CNC(=O)[C@H](CCCCN)NC(=O)[C@H](CCCNC(=N)N)NC(=O)[C@H](CC(C)C)NC(=O)[C@H](Cc1c[nH]c2ccccc12)NC(=O)[C@H](CCCCN)NC(=O)[C@H](CCCCN)NC(=O)[C@H](Cc1c[nH]c2ccccc12)NC(=O)CN)C(=O)N[C@@H](CCCCN)C(N)=O  chronic toxic concentration (zebrafish embryos 4 hpf, E3 medium; 24 h): 5 µM
COc1nc(CC=C(C)CC=CC(C)=CC(C)C(OC2OC(CO)C(O)C(O)C2O)C(C)=CCO)c(C)c(O)c1OC (centres unmarked)  AUC(0-t) (C57BL/6 mouse, plasma; oral, 10 mg/kg): 48.3 ng·h/mL
N#[11C]c1ccc(-c2csc(NN=C3CCCC3)n2)cc1  radioactivity uptake (C57BL/6 mice, male, muscle; intravenous, 3 MBq, 60 min): 0.68 ± 0.1 %ID/g
CSCC[C@H](N)C(=O)N[C@@H](C)C(=O)N[C@@H](Cc1c[nH]c2ccccc12)C(=O)N[C@@H](Cc1c[nH]cn1)C(=O)N[C@@H](CC(=O)O)C(=O)N[C@@H](CC(=O)O)C(=O)N[C@@H](CCC(=O)O)C(=O)N[C@@H](CCC(=O)O)C(=O)N[C@@H](Cc1ccccc1)C(=O)N[C@@H](C)C(=O)N[C@@H](CCCNC(=N)N)C(=O)N[C@@H](CCCNC(=N)N)C(=O)N[C@@H](CCCNC(=N)N)C(=O)N[C@@H](CCCNC(=N)N)C(=O)NCCCCCC(=O)NCCCCC(NC(=O)CCCCCNC(=O)[C@H](CCCNC(=N)N)NC(=O)[C@H](CCCNC(=N)N)NC(=O)[C@H](CCCNC(=N)N)NC(=O)[C@H](CCCNC(=N)N)NC(=O)[C@H](C)NC(=O)[C@H](Cc1ccccc1)NC(=O)[C@H](CCC(=O)O)NC(=O)[C@H](CCC(=O)O)NC(=O)[C@H](CC(=O)O)NC(=O)[C@H](CC(=O)O)NC(=O)[C@H](Cc1c[nH]cn1)NC(=O)[C@H](Cc1c[nH]c2ccccc12)NC(=O)[C@H](C)NC(=O)[C@@H](N)CCSC)C(=O)NCCCCC(NC(=O)C(CCCCNC(=O)CCCCCNC(=O)[C@H](CCCNC(=N)N)NC(=O)[C@H](CCCNC(=N)N)NC(=O)[C@H](CCCNC(=N)N)NC(=O)[C@H](CCCNC(=N)N)NC(=O)[C@H](C)NC(=O)[C@H](Cc1ccccc1)NC(=O)[C@H](CCC(=O)O)NC(=O)[C@H](CCC(=O)O)NC(=O)[C@H](CC(=O)O)NC(=O)[C@H](CC(=O)O)NC(=O)[C@H](Cc1c[nH]cn1)NC(=O)[C@H](Cc1c[nH]c2ccccc12)NC(=O)[C@H](C)NC(=O)[C@@H](N)CCSC)NC(=O)CCCCCNC(=O)[C@H](CCCNC(=N)N)NC(=O)[C@H](CCCNC(=N)N)NC(=O)[C@H](CCCNC(=N)N)NC(=O)[C@H](CCCNC(=N)N)NC(=O)[C@H](C)NC(=O)[C@H](Cc1ccccc1)NC(=O)[C@H](CCC(=O)O)NC(=O)[C@H](CCC(=O)O)NC(=O)[C@H](CC(=O)O)NC(=O)[C@H](CC(=O)O)NC(=O)[C@H](Cc1c[nH]cn1)NC(=O)[C@H](Cc1c[nH]c2ccccc12)NC(=O)[C@H](C)NC(=O)[C@@H](N)CCSC)C(N)=O (some centres unmarked)  mean tissue distribution (C57BL/6 mouse female, colon; dose not given, 6 h; relative to: total): 5.41%
CC(C)=CCC/C(C)=C\CCn1cc(CC(C)(P(=O)(O)O)P(=O)(O)O)nn1  biliary excretion (mouse CD-1; intravenous, 0.3 mg/kg, 8 h; relative to: dose): 0.88%
CN1Cc2cc(Cl)ccc2-n2c(nnc2C2CCN(c3cccc([18F])n3)CC2)C1  tissue uptake (C57BL/6 mouse male, blood; intravenous, 3.7 MBq, 5 min): 3.63 ± 0.23 %ID/g
CCCCCC(=O)N[C@@H](CCCNC(=N)N)C(=O)N[C@@H](Cc1c[nH]c2ccccc12)C(=O)N[C@@H](CCCCN)C(=O)N[C@H](C(=O)N[C@@H](Cc1ccccc1)C(=O)N[C@@H](CCCCN)C(=O)N[C@@H](CCCCN)C(=O)N[C@H](C(=O)N[C@@H](CCC(=O)O)C(=O)N[C@@H](CCCCN)C(=O)N[C@H](C(=O)NCC(=O)N[C@@H](CCC(N)=O)C(=O)N[C@@H](CC(N)=O)C(=O)N[C@H](C(=O)N[C@@H](CCCNC(=N)N)C(=O)N[C@@H](CC(=O)O)C(=O)NCC(=O)N[C@H](C(=O)N[C@H](C(=O)N[C@@H](CCCCN)C(=O)N[C@@H](C)C(=O)NCC(=O)N1CCC[C@H]1C(=O)N[C@@H](C)C(=O)N[C@H](C(=O)N[C@@H](C)C(=O)N[C@H](C(=O)N[C@H](C(=O)NCC(=O)N[C@@H](CCC(N)=O)C(=O)N[C@@H](C)C(=O)N[C@@H](C)C(=O)N[C@H](C(=O)N[C@H](C(N)=O)[C@@H](C)CC)[C@@H](C)O)C(C)C)C(C)C)C(C)C)C(C)C)[C@@H](C)CC)[C@@H](C)CC)C(C)C)[C@@H](C)CC)[C@@H](C)CC  helical content (CD spectroscopy; 50% TFE in water; room temperature): 37.9%
CSCC[C@H](NC(=O)CNC(=O)[C@H](CCCCN)NC(=O)[C@H](CC(C)C)NC(=O)[C@@H]1CCCN1C(=O)[C@H](CO)NC(=O)[C@H](Cc1c[nH]cn1)NC(=O)[C@H](Cc1c[nH]c2ccccc12)NC(=O)[C@H](CCCNC(=N)N)NC(=O)[C@H](CC(C)C)NC(=O)[C@H](CCCNC(=N)N)NC(=O)[C@H](Cc1c[nH]c2ccccc12)NC(=O)[C@H](CS)NC(=O)CCCCCNC(=O)CN1CCN(CC(=O)O)CCN(CC(=O)O)CCN(CC(=O)O)CC1)C(=O)O [copper-64 labelled]  tumour-to-blood ratio (C57BL/6J mice, B16-F10 tumour; intravenous, 1.85 MBq, 18 h; relative to: tumour over blood): 3.7
Cc1sc2c(c1C)C(c1ccc(-c3cccc(NC(=O)c4cnn5cccnc45)c3)cc1)=N[C@@H](CC(N)=O)c1nnc(C)n1-2  tolerability (body weight change; NOD/SCID mice with MV4-11 xenografts; 5 and 10 mg/kg): not toxic
O=C1NC2(CC2)COc2ncc(F)cc2[C@H]2COCCN2c2ccn3ncc1c3n2  body weight (Sprague-Dawley rat, female; oral, 2.5 mg/kg/day, end of treatment, 4-week repeated-dose toxicity): 342 ± 24.5 g
C=Cc1c(C)c2cc3nc(c(CC(=O)[O-])c4[n-]c(cc5nc(cc1[n-]2)C(C)=C5CC)c(C)c4C(=O)[O-])C(CCC(=O)[O-])C3C.[Cu+2].[Na+].[Na+].[Na+] (centres unmarked)  body weight (BALB/c mouse; oral, 5000 mg/kg, acute toxicity; relative to: untreated): no effect
COc1cccc2c1C(=O)c1c(O)c3c(c(O)c1C2=O)CC(O)(C(=O)CO)CC3OC1CC(NC(=O)OC2C=CCCC(C)(C(=O)NCC(=O)O)CC2)C(O)C(C)O1 (centres unmarked)  AUC(0.5-24 h) (male Sprague Dawley rat, plasma; intravenous, 21.5 mg/kg/day doxorubicin equivalents, average over days): 1520 ng·h/mL
CC(C)Oc1c(NC(=O)c2ccc(NC(=O)[C@H](CC(N)=O)NC(=O)c3ccc(/N=N/c4ccccc4)cc3)cc2)ccc(C(=O)Nc2ccc(C(=O)O)cc2)c1O  thermal relaxation half-life (absorbance kinetics; 50 °C, photostationary to ground state): 2.1 h
CC[C@H](C)[C@H](NC(=O)[C@H](CCCCN)NC(=O)CNC(=O)[C@H](CC(C)C)NC(=O)[C@H](Cc1ccccc1)NC(=O)[C@H](CCCCN)NC(=O)[C@H](CO)NC(=O)[C@H](Cc1ccccc1)NC(=O)[C@H](Cc1c[nH]c2ccccc12)NC(=O)[C@H](CCC(N)=O)NC(=O)[C@@H](NC(=O)[C@H](Cc1ccccc1)NC(=O)CCCCCNC(=O)CN1CCN(CC(=O)O)CCN(CC(=O)O)CCN(CC(=O)O)CC1)C(C)C)C(=O)N[C@@H](CCC(=O)O)C(=O)N1CCC[C@H]1C(=O)N[C@@H](CC(=O)O)C(=O)N[C@H](C(=O)N[C@@H](CO)C(=O)N[C@@H](CCC(N)=O)C(=O)N[C@H](C(=O)N[C@@H](CCC(N)=O)C(=O)N[C@@H](CC(=O)O)C(=O)N1CCC[C@H]1C(=O)N[C@@H](CC(N)=O)C(=O)N[C@@H](CC(=O)O)C(=O)N[C@@H](CCC(N)=O)C(=O)N[C@@H](Cc1ccc(O)cc1)C(=O)N[C@@H](CCC(=O)O)C(=O)N1CCC[C@H]1C(=O)N[C@@H](Cc1ccccc1)C(=O)O)C(C)C)C(C)C [copper-64 labelled]  SUVmean (dynamic PET; mouse, CT26 tumour, checkpoint inhibitor-treated, tumour; intravenous, 100 µCi/mouse, 2700 s): 4.66 SUV
CC1(C)C(=O)N(c2ccc(C#N)c(C(F)(F)F)c2)C(=S)N1c1ccc(C(N)=O)c(F)c1  AUC (male human, plasma; oral, 40 mg, single dose, fasted): 71300 ng·h/mL
COc1cnc2cccc(N3CCc4c(cc(Cn5ccnc5)cc4-c4cn(C)nc4C(F)(F)F)C3=O)c2c1  body weight change (CD-1 mouse; intraperitoneal, 50 mg/kg once daily, day 5, dose-escalation tolerability; relative to: day 1): 8.4%
CC(C)C[C@H](NC(=O)CNC(=O)[C@H](CCC(N)=O)NC(=O)[C@H](CC(C)C)NC(=O)[C@H](CC(C)C)NC(=O)[C@H](CCCNC(=N)N)NC(=O)[C@H](CCC(N)=O)NC(=O)[C@H](CC(C)C)NC(=O)[C@H](CCCNC(=N)N)NC(=O)[C@H](C)NC(=O)CNC(=O)[C@H](CCC(=O)O)NC(=O)[C@H](CCCNC(=N)N)NC(=O)[C@H](CC(C)C)NC(=O)[C@H](CCCNC(=N)N)NC(=O)[C@H](CO)NC(=O)[C@H](CC(C)C)NC(=O)[C@H](CCC(=O)O)NC(=O)[C@H](CO)NC(=O)[C@@H](NC(=O)[C@H](Cc1ccccc1)NC(=O)[C@@H](NC(=O)CNC(=O)[C@H](CC(=O)O)NC(=O)C(C)(C)NC(=O)[C@@H](N)Cc1c[nH]cn1)[C@@H](C)O)[C@@H](C)O)C(=O)N[C@@H](CC(C)C)C(=O)N[C@@H](CCC(N)=O)C(=O)NCC(=O)N[C@@H](CC(C)C)C(=O)N[C@H](C(=O)NCC(=O)N[C@@H](CCCCNC(=O)COCCOCCNC(=O)COCCOCCNC(=O)CC[C@H](NC(=O)CCCCCCCCCCCCCCCCC(=O)O)C(=O)O)C(N)=O)C(C)C  Ki67-positive pancreatic cells (DIO C57BL/6J mice; sc, 300 nmol/kg twice daily, 8 days): no effect

Some of these lines once more:
CSCC[C@H](NC(=O)CNC(=O)[C@H](CCCCN)NC(=O)[C@H](CC(C)C)NC(=O)[C@@H]1CCCN1C(=O)[C@H](CO)NC(=O)[C@H](Cc1c[nH]cn1)NC(=O)[C@H](Cc1c[nH]c2ccccc12)NC(=O)[C@H](CCCNC(=N)N)NC(=O)[C@H](CC(C)C)NC(=O)[C@H](CCCNC(=N)N)NC(=O)[C@H](Cc1c[nH]c2ccccc12)NC(=O)[C@H](CS)NC(=O)CCCCCNC(=O)CN1CCN(CC(=O)O)CCN(CC(=O)O)CCN(CC(=O)O)CC1)C(=O)O [copper-64 labelled]  tumour-to-blood ratio (C57BL/6J mice, B16-F10 tumour; intravenous, 1.85 MBq, 18 h; relative to: tumour over blood): 3.7
Cc1sc2c(c1C)C(c1ccc(-c3cccc(NC(=O)c4cnn5cccnc45)c3)cc1)=N[C@@H](CC(N)=O)c1nnc(C)n1-2  tolerability (body weight change; NOD/SCID mice with MV4-11 xenografts; 5 and 10 mg/kg): not toxic
O=C1NC2(CC2)COc2ncc(F)cc2[C@H]2COCCN2c2ccn3ncc1c3n2  body weight (Sprague-Dawley rat, female; oral, 2.5 mg/kg/day, end of treatment, 4-week repeated-dose toxicity): 342 ± 24.5 g
